Measured values collected from several papers.
Protocols differ between the studies behind these lines. Numbers after ± are the reported error.
Cell line: MDA-MB-231

SMILES	effect on	technique	time	notes	IC50
Nc1cccc[n+]1CCCCC[n+]1ccccc1N	cell growth or viability	MTT	72 h		35.9 µM
C[C@@H]1O[C@@H](OC(=O)/C=C/c2ccc(O)cc2)[C@H](OC(=O)/C=C/c2ccc(O)cc2)[C@H](O)[C@H]1O	cell growth or viability	MTT			17.7 µM
CCCCCCN(CCCCCC)C1=[S+][Au-2]2([S]1)[c]1ccccc1-c1cccc[n+]12.F[P-](F)(F)(F)(F)F (centres unmarked)	cell growth or viability	MTT	72 h		1.23 µM
CCN(CC)CCO/N=C1/C=C2CCC3C(CC[C@]4(C)/C(=C/c5ccccn5)CCC34)[C@@]2(C)CC1 (some centres unmarked)	cell growth or viability	MTT	72 h		> 100 µM
Cc1cc(C)c([N+]#[C][Pt-]([Cl])([Cl])=[C](Nc2cccc(CN[C](Nc3c(C)cc(C)cc3C)=[Au][Cl])c2)Nc2c(C)cc(C)cc2C)c(C)c1	cell growth or viability				> 100 µM
CCn1[c]([Au-][Cl])[n+](CC)c2ccc(C(=O)OC)cc21	cell growth or viability	crystal violet	96 h		9.5 µM
Cc1cc(-c2ccccc2)c2ccc3c(-c4ccccc4)cc(C)[n+]4c3c2[n+]1[Re-2]4(=[C]=O)(=[C]=O)(=[C]=O)[O]C(=O)c1ccccn1	cell growth or viability	resazurin	72 h		1.03 µM
CC12CCC3c4ccc(Oc5no[n+]([O-])c5S(=O)(=O)c5ccccc5)c(Br)c4CCC3C1CCC2O (centres unmarked)	cell growth or viability	MTT	48 h		0.078 µM
CCOc1cc(/C=C/C(=O)/C=C/c2cn(-c3ccccc3)nc2C(=O)O)ccc1O	cell growth		72 h		22.6 ± 2.17 µM
COc1ccc(/C(=C(/CCn2cc(CN3C(=O)C4(OCCO4)c4cc(Br)ccc43)nn2)c2ccccc2)c2ccccc2)cc1	cell growth or viability	MTT			> 100 µM
C#CCOCC1=C(C(=O)OCC)C(c2cccc(Cl)c2)N2C(=N1)Sc1ccccc12 (centres unmarked)	cell growth or viability	MTT			0.0637 µM
C#CCOC(=O)C(CC)C1CCC(C)C(C(C)C(O)C(C)C(=O)C(CC)C2OC3(C=CC(O)C4(CCC(C)(C5CCC(O)(CC)C(C)O5)O4)O3)C(C)CC2C)O1 (centres unmarked)	cell growth or viability	MTT	72 h		> 10 µM
COC(Cn1ccn(C)[c]1=[Ag][O]C(C)=O)c1ccccc1 (centres unmarked)	cell growth or viability	MTT	72 h		20.9 µM
Cc1ccc(C(C)C)cc1.O=C(N=P(c1ccccc1)(c1ccccc1)c1ccccc1)c1[c-]cccc1.[Cl-].[Ru+2]	cell growth or viability	MTT	24 h		7.1 µM
O=C1CS/C(=N\N=C2/C(=O)N(CCn3ncc4c(=O)[nH]cnc43)c3ccc(Cl)cc32)N1	cell growth or viability	SRB	72 h		51.3 µM
CCCCCCCCCCCCCCCOC(=O)/C=C/c1ccc(OC)c(OC)c1	cell viability	MTT	48 h	serum-free medium	39.4 ± 4.1 µg/mL
O=C(O)CNc1nc(NNC(=O)c2ccc(Nc3nc(Nc4ccc(C(=O)NNc5nc(NCC(=O)O)nc(N6CCCCC6)n5)cc4)nc(Nc4ccc(C(=O)NNc5nc(NCC(=O)O)nc(N6CCCCC6)n5)cc4)n3)cc2)nc(N2CCCCC2)n1	cell growth or viability	MTT	72 h		0.081 µM
N#C[CH2][Pd]1[O]c2ccc(Br)cc2C=Nc2cccnc2[N]1Cc1ccccc1	cell growth or viability	MTT	48 h		27.5 µM
Cc1ccc(C(C)C)cc1.[Cl-].[Cl-].[Fe+2].[Ru+2].c1cc[cH-]c1.c1ccc(P(=NCc2ccccn2)(c2ccccc2)[c-]2cccc2)cc1	cell growth or viability	MTT	24 h		> 125 µM
N#C[CH2][Pd]1[O]c2ccccc2C=Nc2cccnc2[N]1Cc1ccccc1	cell growth or viability	MTT	48 h		25.5 µM

SMILES	effect on	technique	time	notes	IC50
C[C@@H]1CC[C@@H]([C@](O)(COCc2ccccc2)Cn2cnc3ccccc32)[C@H](OCc2ccccc2)C1	cell growth or viability	MTT	72 h		5 µM
CCCCCCCCCCCCCCCOC(=O)/C=C/c1ccc(O)c(OC)c1	cell viability	MTT	48 h	serum-free medium	2.7 ± 0.4 µg/mL
COC1=C(OC)C(O)C(CC=C(C)CCC=C(C)CCC=C(C)C(=O)O)C(C)C1=O (centres unmarked)	cell growth or viability	MTS	72 h		> 25 µM
Cc1cc(-c2ccccc2)c2ccc3c(-c4ccccc4)cc(C)[n+]4c3c2[n+]1[Re-2]4(=[C]=O)(=[C]=O)(=[C]=O)[O]C(=O)c1cccnc1	cell growth or viability	resazurin	72 h		0.591 µM
CC(C)c1cccc(C(C)C)c1-n1c2c([n+](-c3c(C(C)C)cccc3C(C)C)[c]1[Au-][Cl])-c1cccc3cccc-2c13	cell growth or viability	MTT	72 h		33 µM
C#C[C@@]1(O)CCC2C3CCc4cc(Oc5no[n+]([O-])c5S(=O)(=O)c5ccccc5)ccc4C3CCC21C (some centres unmarked)	cell growth or viability	MTT	48 h		0.0132 µM
C=CC(OC(C)=O)c1cc(OC)cc(OC)c1 (centres unmarked)		MTT	24 h		> 50 µM
CN[C@@H](C)C(=O)N[C@H]1CN(C(=O)Cc2ccccc2)CC[C@H]2CC[C@@H](C(=O)NCc3ccc(C(F)(F)F)cc3)N2C1=O	cell growth or viability		96 h		0.307 µM
CC(C)c1cccc(C(C)C)c1[N+]#[C][Pt-]([Cl])([Cl])=[C](Nc1cccc(CN[C](Nc2c(C(C)C)cccc2C(C)C)=[Au][Cl])c1)Nc1c(C(C)C)cccc1C(C)C	cell growth or viability				> 100 µM
Cc1cc(/C=C/C#N)cc(C)c1Oc1cc(Nc2ccc(C#N)cn2)nc2ccncc12			48 h		> 120 µM
CN[C@@H](C)C(=O)N[C@H]1CN(C(=O)Cc2ccccc2)CC[C@H]2CC[C@@H](C(=O)NCc3ccccc3Br)N2C1=O	cell growth or viability		96 h		0.667 µM
CC(C)c1cccc(C(C)C)c1[N+]#[C][Pt-]([Cl])([Cl])=[C](Nc1ccc(CN[C](NC(C)(C)C)=[Au][Cl])cc1)Nc1c(C(C)C)cccc1C(C)C	cell growth or viability				> 100 µM
Cc1cc(/C=C/C#N)cc(C)c1Oc1cc(Nc2ccc(C#N)cn2)nc2cnccc12			48 h		16.4 ± 3.1 µM
COc1cc(-c2coc3cc(O)cc(O)c3c2=O)ccc1O	cell growth or viability	MTT	24 h		> 100 µM
COC(=O)[C@@H](NC(=O)[C@@H](NC(=O)[C@@H](NC(=O)OC(C)(C)C)C(C)C)C(C)C)C(C)C	cell growth or viability	SRB			30 µM
COc1ccc(/C=C/C(=O)/C=C/c2cn(-c3ccccc3)nc2C(=O)O)cc1O	cell growth		72 h		> 25 µM
COc1ccc(/N=N/C(=S)N2CCOCC2)cc1	cell growth or viability	resazurin	48 h		> 50 µM
Cc1cc(-c2ccccc2)c2ccc3c(-c4ccccc4)cc(C)[n+]4c3c2[n+]1[Re-2]4(=[C]=O)(=[C]=O)(=[C]=O)[O]S(=O)(=O)c1ccc2ccccc2c1	cell growth or viability	resazurin	72 h		6.34 µM
C1=CCCC=CCC1.F[P-](F)(F)(F)(F)F.[Pt+][c]1ccccc1P(=Nc1ccccc1)(c1ccccc1)c1ccccc1	cell growth or viability	MTT	24 h		0.84 µM
COc1ccc(CNC[C@@](O)(COCc2ccc(F)cc2)[C@@H]2CC[C@@H](C)C[C@H]2OCc2ccc(F)cc2)cc1	cell growth or viability	MTT	72 h		1.8 µM

SMILES	effect on	technique	time	notes	IC50
O=C(O)CNc1nc(Cl)nc(NNC(=O)c2ccc(Nc3nc(Nc4ccc(C(=O)NNc5nc(Cl)nc(NCC(=O)O)n5)cc4)nc(Nc4ccc(C(=O)NNc5nc(Cl)nc(NCC(=O)O)n5)cc4)n3)cc2)n1	cell growth or viability	MTT	72 h		0.045 µM
CC(C)c1cccc(C(C)C)c1N=[C](NCc1cccc(N)c1)[AuH][Cl]	cell growth or viability				3.9 µM
c1ccc(-c2nn(-c3ccccn3)[n+](-c3ccccc3)n2)cc1	cell growth or viability	resazurin	72 h		16 µM
C[C@@H]1CC[C@@H]([C@](O)(CNCc2ccccc2F)COCc2ccccc2)[C@H](OCc2ccccc2)C1	cell growth or viability	MTT	72 h		2.9 µM
CC(C)c1cccc(C(C)C)c1[N+]#[C][Pd-2]([Cl])([Cl])[C]#[N+]c1c(C(C)C)cccc1C(C)C	cell growth or viability				> 100 µM
CCn1cc[n+](CC)c1	cell growth or viability	crystal violet	96 h		> 100 µM
CN[C@@H](C)C(=O)N[C@H]1CN(C(=O)Cc2ccccc2)CC[C@H]2CC[C@@H](C(=O)NCc3ccc(C)cc3)N2C1=O	cell growth or viability		96 h		0.017 µM
CCCC(=O)Oc1c(C)c(OC)c2c(/C=C/c3ccccc3)c(CC)c(=O)oc2c1C	cell growth or viability	SRB	72 h		> 50 µM
COc1cc(/C=N/NC(=O)c2cc3cc(Nc4nccc(-c5cccnc5)n4)ccc3[nH]2)cc(OC)c1	cell growth or viability	MTT	48 h		13.6 µM
CCCCCCCCCCCCCCCC(=O)Oc1ccc(CO)cc1OC(=O)c1ccccc1	cell viability	MTT	48 h	serum-free medium	8.6 ± 0.9 µg/mL
C[C@]12CC/C(=N\OCCN3CCCCC3)C=C1CCC1C2CC[C@]2(C)/C(=C/c3ccccn3)CCC12 (some centres unmarked)	cell growth or viability	MTT	72 h		19.1 µM
CC12CCC3c4ccc(OCCOc5no[n+]([O-])c5S(=O)(=O)c5ccccc5)cc4CCC3C1CCC2=O (centres unmarked)	cell growth or viability	MTT	48 h		0.311 µM
CC(=O)N[C@@H](Cc1c[nH]c2ccccc12)C(=O)[O][Re-2]1(=[C]=O)(=[C]=O)(=[C]=O)[n+]2ccc(-c3ccccc3)c3ccc4c(-c5ccccc5)cc[n+]1c4c32	cell growth or viability	resazurin	72 h		1.99 µM
CCOC(=O)C1CC(C)C2C=CC3CCN(C(=O)C4CCC5C=CC6(CCCN6C(=O)C(Cc6ccccc6Cl)NC(C)=O)C(=O)N54)C3C(=O)N12 (centres unmarked)	cell migration				24 µM
COc1cccc(CNC[C@](O)(COCc2ccccc2)[C@@H]2CC[C@@H](C)C[C@H]2OCc2ccccc2)c1	cell growth or viability	MTT	72 h		1.9 µM
CN[C@@H](C)C(=O)N[C@H]1CN(C(=O)Cc2ccccc2)CC[C@H]2CC[C@@H](C(=O)NCc3ccc(C(C)(C)C)cc3)N2C1=O	cell growth or viability		96 h		1.32 µM
COc1cc2c(cc1-c1coc3c(CC=C(C)C)c(OC)c(OC)cc3c1=O)OCO2	cell growth or viability	MTT	72 h		20.8 µM
Oc1ccccc1-n1nc(-c2ccccc2)n[n+]1-c1ccccc1	cell growth or viability	resazurin	72 h		320 µM
CC(C)c1cccc(C(C)C)c1N=[C](NCc1ccc(N)cc1)[AuH][Cl]	cell growth or viability				> 100 µM

Some of these lines once more:
SMILES	effect on	technique	time	notes	IC50
CCCCCCCCCCCCCCCOC(=O)/C=C/c1ccc(OC)c(OC)c1	cell viability	MTT	48 h	serum-free medium	39.4 ± 4.1 µg/mL
O=C(O)CNc1nc(NNC(=O)c2ccc(Nc3nc(Nc4ccc(C(=O)NNc5nc(NCC(=O)O)nc(N6CCCCC6)n5)cc4)nc(Nc4ccc(C(=O)NNc5nc(NCC(=O)O)nc(N6CCCCC6)n5)cc4)n3)cc2)nc(N2CCCCC2)n1	cell growth or viability	MTT	72 h		0.081 µM
N#C[CH2][Pd]1[O]c2ccc(Br)cc2C=Nc2cccnc2[N]1Cc1ccccc1	cell growth or viability	MTT	48 h		27.5 µM
Cc1ccc(C(C)C)cc1.[Cl-].[Cl-].[Fe+2].[Ru+2].c1cc[cH-]c1.c1ccc(P(=NCc2ccccn2)(c2ccccc2)[c-]2cccc2)cc1	cell growth or viability	MTT	24 h		> 125 µM
N#C[CH2][Pd]1[O]c2ccccc2C=Nc2cccnc2[N]1Cc1ccccc1	cell growth or viability	MTT	48 h		25.5 µM
C[C@@H]1CC[C@@H]([C@](O)(COCc2ccccc2)Cn2cnc3ccccc32)[C@H](OCc2ccccc2)C1	cell growth or viability	MTT	72 h		5 µM
CCCCCCCCCCCCCCCOC(=O)/C=C/c1ccc(O)c(OC)c1	cell viability	MTT	48 h	serum-free medium	2.7 ± 0.4 µg/mL
